# Published values pooled from the literature.
# Every numbered part comes from another study and shows a few of its results, in no order.

# Sample 1 — technique: RNA Bind-n-Seq; molecule type: RNA; sample: in vitro; concentration: not given; setting: RNA with constant flanks, ends assumed; reference: input RNA pool; reading: higher = stronger binding
# Target: RING finger protein unkempt homolog, zinc fingers 1-6, GST-SBP tag (UNK, Homo sapiens, UniProt Q9C0B0, residues 30-357)
# All sequences stand within: GGGAGUUCUACAGUCCGACGAUC … CAACAGAGGAUUGAGCAUCA
# Residues (chain): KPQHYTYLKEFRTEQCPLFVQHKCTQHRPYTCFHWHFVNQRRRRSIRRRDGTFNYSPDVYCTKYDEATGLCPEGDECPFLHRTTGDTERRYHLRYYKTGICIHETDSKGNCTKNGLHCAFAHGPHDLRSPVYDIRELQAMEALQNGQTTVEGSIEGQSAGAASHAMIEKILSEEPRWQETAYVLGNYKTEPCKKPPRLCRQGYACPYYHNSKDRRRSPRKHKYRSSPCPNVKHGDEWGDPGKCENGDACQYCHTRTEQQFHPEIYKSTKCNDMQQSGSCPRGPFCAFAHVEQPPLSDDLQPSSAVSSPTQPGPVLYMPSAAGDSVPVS
Sequence,bound/input enrichment [ratio]
AUAAUAAAAGCCUCCAGCAAAGACGCCAUCAGGCUCUUGGAUUCUGUGCCUCCCACUGCCAUCCGCCAUUUCAAGCAGUCAGCUGAGAAGCUGAUUGAGGAGAAGGGAGCUGUAGAGGCC,0.229
CCAAAAGCAGUGGUUUCUCCUCCAAAGUUUGUAUUUGGUUCAGAGUCUGUUAAAAGCAUUUUCCGCCGUGAAAAAUCAAAACCAUUUGCAUUCGGCAACAGUUCAGCCACUGGGUCUUUG,0.119
UGGCGGUUCAGCAACAUGAAGCAGUGGAAUGUCAACUGGGAGAUCAAGAUGGUCACUGCCGAGUUUGCAGAUGAGGUCCGGUUGUCCUUCAUCUGUACCGAAGUAGACUGCAAGGUGGUC,0.12
UUCUGGUUCAGAUCUGUGCCGUUGGCUGCCACAAGUAUGCUGAUUACUCAAGGAUUAAUCCGUAAAGGAAUCCUGUCAAGUCAUCCAAAAUAUGGUUCAAUUCCUAAACUUCUAUUCGCU,0.147
GGCUAUUUAUUGCAUUCUCCUUUGUAAACCCAGUCUAGGGUAAGCUUAAUACUUUACCCACAGGGCCGCUCUUCAGAAAACCUAAUCAGUCUAUUUUGUGCCCAGGUUUGUGUGUGUGUG,0.409
GAGCGUCUCGCUCGAACCGGGAUCAUAGUGACCACGAGUGAGGCUGUUCUGCUUCAGCUGGCCGCUGAUAAGGACCAUCCAAAAUUCAAGGAAAUUCAGAAUCUAAUUAAGGCGAGUGCU,0.281
GUAAUCUUCCAAAGGAAGCUCUUUCAGGCCUUGAGGAAGCAUCCUGCUUAUCCCAAAGUAACCGAAGAGUUUGUUAAUGGCCUGGAGUCCUACACUGAGGACAGUGAGAGUCUCAGGAAC,0.1
UACUGCUGGUAUUGUACCAGGAACAUUUUCUUUUAUUGUUACUUGCUUUUUAAACUUUGUUCCGCCACUUAAAGAAAACCUGCUCAUGGCACAACUUGCCUCAAAUCCAUUCCAAGUUGU,0.481
CGUCCUUGUUAAGCACUGCUUUCCAGACCGUGUCUGACUUAGUCAACCUAGAGGAUUUUACCGUUUCACUCUAAUGAAGUCCUGAUUAACACAGAGCAGCGGAGCAGCGGUCCCUCCCCU,0.313
UCAUUGGGUUACUCCUAUUAUCAAGUAGCUGGAAUUGUGAAGGUUGAGUAGUUAGAUCUUCCGCUUUUAUUCAUUAUUUUUUGUAUUACUCUCCAUGUGUAUAAAUUAUUGAUCAUGUUG,3.23
UAUUUCAGUGUCAUGGACUUCCUCAAAAUGAAGUGCUAUUUUCUUAUUUUUAAUCAAAUAACCCGACAUAUAUCAGAAACUUUAAAAUGUAAAAGUUGUACACUUUCAACAUUUUAUUAC,0.174

# Sample 2 — technique: protein binding microarray; molecule type: double-stranded DNA, one strand shown; sample: in vitro; concentration: not given; reference: not given; reading: higher = stronger binding
# Target: Histone acetyltransferase KAT6A, winged helix 1, GST fusion (KAT6A, Homo sapiens, UniProt Q92794, residues 1-85)
# Setting: 8-mer, flanks averaged, mean of 2 arrays, mostly near background
# Target sequence (chain): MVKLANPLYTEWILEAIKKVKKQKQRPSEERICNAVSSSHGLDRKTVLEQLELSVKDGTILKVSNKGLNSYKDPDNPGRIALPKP
Sequence,E-score
ATCGGAAA,0.123
AATTCGAT,-0.139
AGCAGGTC,0.0137
ATCTGCAT,-0.209
CTAATATA,-0.0293
ATATCATA,-0.074
AGCTCCCT,-0.197
GCGAATGA,0.122
CCTCAAAG,-0.243
GCCCGGGC,0.427
AGAACGTA,-0.0374
AGACCGTG,0.214
CAGACATA,0.113
CTAGAACA,0.00585
CTAACTAC,-0.103
CCTTGCTA,-0.134
GAAACAAA,-0.224
AACGAAAA,-0.127
GTCACTCA,-0.142
TAGAACTA,-0.145
ACCAGGCC,-0.073
CGGAGAAA,0.184
TAGGTCGA,-0.0581
ACAGAGAT,-0.215
CACGAGCC,-0.029

# Sample 3 — technique: RNA Bind-n-Seq; molecule type: RNA; sample: in vitro; concentration: 365 nM; reference: no-protein control; reading: higher = stronger binding
# Target: RNA binding protein fox-1 homolog 2, RRM domain, GST-SBP tag (RBFOX2, Homo sapiens, UniProt O43251-10, residues 100-194)
# Setting: natural RNA segment, single round, ends assumed
# All sequences stand within: GGGAGUUCUACAGUCCGACGAUC … UGGAAUUCUCGGGUGCCAA
# Target sequence (chain): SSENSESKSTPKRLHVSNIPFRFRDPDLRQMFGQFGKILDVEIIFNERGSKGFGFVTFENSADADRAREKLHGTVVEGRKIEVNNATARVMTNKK
Sequence,RBNS enrichment (R)
UAACUCUGCGGAUAGCAUUUGGUAGGUAGUGAUUAACUGUGAAUAAUAAAUACACAAUGAAUUCUUCCUUGGUAUCUUUUUUUCCCCUUGCCUGCCUUAAAAAUUUAAAA,0.662
UAGAGAAACAGCACAAUCAAUUCCAAAUGGUAUGAGAUGGAUUGGAAGUGGCCAGCAGCAAGUUCUGGUGACGGGACAGAGUGGCCUUGGAUGUCUUUGGUAUUUUCUGU,0.609
GAGAUUUCUGAUGUUAGAGGGAGAUGGAGAGGCUUCCUGAUGCCUCAUCUGCAGGGUCCUGUGCCUCUGAAGUUCUAGCCAUGAGGUUUCCAGGUAGGACAGCUGCUCCC,0.356
AAUUAAGGGAGCUGAGCCAGUCAUGGUUGUGGCGUGUGAGUCAGGAGACCUAGGUUUCAGCCCCUCUCUACUGUCAGCGAGCUGUGCAACGUGGGCAAGUCAUUGUCCUC,0.283
UCUCUCCUGAGUCAUGACGGGUCAUACUGAUUCUUGUUCCACUGAUGAUUUUCUCUGAUGAGGUCCUAUCUGCAAGGUCAAUGAGCAGACUUACAUGCCAUCUUCUGAGU,0.306
GUUCUUAAAAUUAUCAACCUUUGUUACGGAUGGGCCUCCACUAGGUGGCUGUGGGUAAAGUCUUGGGGGGAGGAUAGGAAAGGAGACCGGCUGAGCCUCAGGGCUAAUUG,0.42
GGCAGGGCUAUUCUUUUUAUUUCUGCGAGGGACAAGAGUCUGGCUUUUAAGCUGCAGCCCCGCUGUUCCUUUUCUCCUCUGUCCCAUUUCCUACCUUACAUGAAAUCCAU,0.221
AGUUUUCAUUUAAACACUUAGUUCAGAAACCUUAAAGGAUUUGAAUAUUUCAAAUUGCACACGUCACUCCAGCAUCUCUGUAAAAUAAUUGGAAUGAAAAUACUUCUUGC,1.31
AUGUGUGUCUUUCACAGGAGUGACUGCUGCGUGUAAGAGAGCUGUCAAUCAAACUUAUGGUCAUUUUCUUUGCUAACAACCAAUGCUUCACUGUGCCAAAAAAAAAAAAA,1.21
GUCCUCCAGAAGCCUCUGGCUAGAGGCCAGCCCCACCCAGGAGGGAGGGGGCUAUAGCUACAGGAAGCACCCCAUGCCAAAGCUAGGGUGGCCCUUGCAGUUCAGCACCA,0.173
UUUUAAGUUCUUAUGAGGAGGGGAGGGUAAAUAAACCACUGUGCGUCUUGGUGUAAUUUGAAGAUUGCCCCAUCUAGACUAGCAAUCUCUUCAUUAUUCUCUGCUAUAUA,0.343
AGCGAGUCCAGCAGGGAGUCCAGCAACGAGGAUGAGGGCAGCAGCUCCGAGGCCGACGAGAUGGCCAAGGCGCUGGAGGCGGAGCUCAACGACCUCAUGUGAGCGCGGGC,0.4

# Sample 4 — technique: protein-binding microarray; molecule type: double-stranded DNA, one strand shown; sample: in vitro; concentration: 940 nM top; setting: 60-bp whole probe; added: salmon DNA 0.4 mg/ml; reference: random background probes; reading: higher = stronger binding; all sequences stand within: GCCTAGCAC … GTCTTGATTCGCTTGACGCTGCTG
# Target: Interferon regulatory factor 5, full length, phosphomimetic (IRF5, Homo sapiens, UniProt Q13568-2, residues 1-514, S451D/S453D/S456D/S462D)
Sequence,fitted relative affinity
GACGGTATCCTTCACCTGACGTGCTAG,0.44 z-score
GAGTGGTTCTGCTTCTTAGCGTGCTAG,0.151 z-score
GACGGTATCGACTATCCGGACGTGCTA,6.14 z-score
GACGGTTTCGGACTGTGGACGTGCTAG,5.68 z-score
TCACATCTCTCTTAAATACTGTGCTAG,1.27 z-score
TCAAATTTCCATTTTCTACTGTGCTAG,0.533 z-score
GACGATTTCGGGGTTCGAGACGTGCTA,0.809 z-score
GACTGTATCGGGACTGGGGACGTGCTA,0.532 z-score
TTAGGTTTCCTTATACTTTAGTGCTAG,1.82 z-score
TCTCATTTCCAATTACCTTTGTGCTAG,5.66 z-score
TCAAGGCTGGTCTCTAACACTGTGCTA,-0.419 z-score
TCATTTCTCTTTCACTAACTGTGCTAG,2.87 z-score
TCACACATTTTTTTCATACTGTGCTAG,1.54 z-score
TTAGGACTGCTACTGCTTCAGTGCTAG,-0.236 z-score
TCACTTTTTTTTCTTTAACTGTGCTAG,2.02 z-score
TTAGGACTGGACTATTGGTTAGTGCTA,-0.387 z-score
TTAGGACTGGGGTTACGGTTAGTGCTA,0.192 z-score
TTTAAGCTCCTATCTTATGATGTGCTA,0.0793 z-score
GGGCCTAGCCATTATGAGTCTGTGCTA,-0.187 z-score
TTAGGTCTCCTTTTCATTTAGTGCTAG,0.795 z-score
CGAGTTTTCTCTCCCATTCTGTGCTAG,1.4 z-score
TGATCTCTGGTCTTTGTCAGGTGCTAG,0.49 z-score
TTAGATTTGAGTCTCGATTAGTGCTAG,2.95 z-score
GCACTGTGCCTGCTGCCCTTGTGCTAG,-0.506 z-score
GACGGACTGGTACTGCTGACGTGCTAG,-0.678 z-score

# Sample 5 — technique: aptamer microarray, sandwich; molecule type: DNA with 2'F-ANA; sample: in vitro; concentration: 200 nM; added: Cy3 exosite-II aptamer, 400 nM; reading: higher = stronger binding; sequence: GGTTGGTGTGGTTGG
# Target: Prothrombin, mature alpha-thrombin (F2, Homo sapiens, UniProt P00734)
# Setting: whole 15-mer aptamer, many near background
Modification,mean fluorescence intensity
2'F-ANA at 2 6 7 8 10 11 13,103 a.u.
2'F-ANA at 4 6 12 14 15,128 a.u.
2'F-ANA at 2 4 6 9 10 12 14,62.9 a.u.
2'F-ANA at 1 3 4 6 8 9 10 12 14 15,62.2 a.u.
2'F-ANA at 1 4 5 6 7 8 10 13 14,51.6 a.u.
2'F-ANA at 2 3 4 5 6 9 10 11 13 15,49.2 a.u.
2'F-ANA at 1 2 4 10 12 13 14,45.9 a.u.
2'F-ANA at 1 3 4 5 6 7 9 10 13 14 15,48.9 a.u.
2'F-ANA at 1 6 7 10 13,61.1 a.u.
2'F-ANA at 1 4 6 7 11 14 15,51.1 a.u.
2'F-ANA at 2 7 9 11 14 15,139 a.u.
2'F-ANA at 1 7 8 10 11 12 14 15,48.3 a.u.
2'F-ANA at 1 3 4 6 7 9 10 12 14 15,52.8 a.u.
2'F-ANA at 1 2 3 5 6 8 10 12 13 15,117 a.u.
2'F-ANA at 3 4 5 7 9 11 12 15,157 a.u.
2'F-ANA at 1 3 7 8 10 11 12 13 15,109 a.u.
2'F-ANA at 4 5 6 7 8,82.1 a.u.
2'F-ANA at 2 4 5 6 12 14,49.6 a.u.

# Repeated from above (sample 2):
Sequence,E-score
CAGACATA,0.113
CTAGAACA,0.00585
CTAACTAC,-0.103
CCTTGCTA,-0.134
GAAACAAA,-0.224
AACGAAAA,-0.127
GTCACTCA,-0.142
